Measurements of several laboratories.
Each numbered part is a random draw from the data of one study; scales do not carry over between parts.
Sequence of UniProt Q9Y2H1 (whole entry, looked up): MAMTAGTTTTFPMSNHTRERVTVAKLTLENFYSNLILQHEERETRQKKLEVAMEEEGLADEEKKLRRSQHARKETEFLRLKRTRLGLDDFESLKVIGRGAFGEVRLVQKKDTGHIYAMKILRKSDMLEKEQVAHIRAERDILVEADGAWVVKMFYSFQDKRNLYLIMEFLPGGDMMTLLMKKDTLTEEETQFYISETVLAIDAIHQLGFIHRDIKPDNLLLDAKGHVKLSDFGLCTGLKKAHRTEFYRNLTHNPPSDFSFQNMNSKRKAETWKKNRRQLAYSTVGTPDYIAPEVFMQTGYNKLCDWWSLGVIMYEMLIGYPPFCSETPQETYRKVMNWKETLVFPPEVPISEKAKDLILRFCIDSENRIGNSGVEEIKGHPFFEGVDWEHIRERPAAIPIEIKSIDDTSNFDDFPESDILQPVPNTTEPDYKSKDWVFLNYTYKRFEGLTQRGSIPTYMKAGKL
Sequence of UniProt O15197 (whole entry, looked up): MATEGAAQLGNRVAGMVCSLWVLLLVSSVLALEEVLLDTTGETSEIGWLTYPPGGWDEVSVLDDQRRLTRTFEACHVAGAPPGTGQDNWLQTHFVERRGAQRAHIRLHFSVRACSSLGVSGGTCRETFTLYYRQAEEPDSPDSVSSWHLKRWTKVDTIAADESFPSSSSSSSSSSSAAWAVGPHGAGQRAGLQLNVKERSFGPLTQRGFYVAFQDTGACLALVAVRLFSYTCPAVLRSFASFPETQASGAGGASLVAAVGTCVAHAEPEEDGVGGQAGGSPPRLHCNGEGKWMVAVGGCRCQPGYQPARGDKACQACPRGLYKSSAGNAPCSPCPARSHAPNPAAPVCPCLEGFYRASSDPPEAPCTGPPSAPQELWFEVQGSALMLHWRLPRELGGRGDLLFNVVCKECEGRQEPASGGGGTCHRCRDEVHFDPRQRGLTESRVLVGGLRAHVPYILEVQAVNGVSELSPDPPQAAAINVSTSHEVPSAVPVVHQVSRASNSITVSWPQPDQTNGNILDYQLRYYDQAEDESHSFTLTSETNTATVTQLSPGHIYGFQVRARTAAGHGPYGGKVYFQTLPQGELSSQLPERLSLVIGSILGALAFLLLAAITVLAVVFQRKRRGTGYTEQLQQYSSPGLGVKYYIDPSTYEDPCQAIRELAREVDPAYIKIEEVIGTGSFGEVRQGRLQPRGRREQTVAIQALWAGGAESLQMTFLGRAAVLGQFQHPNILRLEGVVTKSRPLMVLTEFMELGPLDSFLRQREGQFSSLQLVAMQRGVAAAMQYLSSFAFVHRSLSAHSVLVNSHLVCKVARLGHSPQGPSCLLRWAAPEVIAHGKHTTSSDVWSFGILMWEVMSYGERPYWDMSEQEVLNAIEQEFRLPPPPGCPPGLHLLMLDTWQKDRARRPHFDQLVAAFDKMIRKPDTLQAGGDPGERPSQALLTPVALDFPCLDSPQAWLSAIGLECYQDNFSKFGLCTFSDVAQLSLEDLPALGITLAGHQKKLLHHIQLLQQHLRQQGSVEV
Sequence of UniProt Q99640 (whole entry, looked up): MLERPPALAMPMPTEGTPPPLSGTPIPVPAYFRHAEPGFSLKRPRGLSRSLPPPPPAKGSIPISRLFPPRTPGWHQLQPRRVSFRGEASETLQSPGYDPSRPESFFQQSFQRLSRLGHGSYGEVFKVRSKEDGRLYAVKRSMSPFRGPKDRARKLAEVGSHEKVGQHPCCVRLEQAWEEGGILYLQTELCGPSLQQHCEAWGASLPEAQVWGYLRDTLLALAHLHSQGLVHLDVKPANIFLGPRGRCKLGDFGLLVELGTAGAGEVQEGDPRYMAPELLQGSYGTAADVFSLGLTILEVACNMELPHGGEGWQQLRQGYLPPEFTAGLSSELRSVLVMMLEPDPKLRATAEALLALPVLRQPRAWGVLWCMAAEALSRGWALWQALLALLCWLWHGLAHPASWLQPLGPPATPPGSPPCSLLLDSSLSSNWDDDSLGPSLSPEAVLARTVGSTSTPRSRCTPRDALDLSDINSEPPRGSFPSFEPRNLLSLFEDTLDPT

Study 1
Target: DNA polymerase theta, ATPase domain (POLQ, Homo sapiens, UniProt O75417)
Sequence of UniProt O75417 (whole entry, unmodified, looked up): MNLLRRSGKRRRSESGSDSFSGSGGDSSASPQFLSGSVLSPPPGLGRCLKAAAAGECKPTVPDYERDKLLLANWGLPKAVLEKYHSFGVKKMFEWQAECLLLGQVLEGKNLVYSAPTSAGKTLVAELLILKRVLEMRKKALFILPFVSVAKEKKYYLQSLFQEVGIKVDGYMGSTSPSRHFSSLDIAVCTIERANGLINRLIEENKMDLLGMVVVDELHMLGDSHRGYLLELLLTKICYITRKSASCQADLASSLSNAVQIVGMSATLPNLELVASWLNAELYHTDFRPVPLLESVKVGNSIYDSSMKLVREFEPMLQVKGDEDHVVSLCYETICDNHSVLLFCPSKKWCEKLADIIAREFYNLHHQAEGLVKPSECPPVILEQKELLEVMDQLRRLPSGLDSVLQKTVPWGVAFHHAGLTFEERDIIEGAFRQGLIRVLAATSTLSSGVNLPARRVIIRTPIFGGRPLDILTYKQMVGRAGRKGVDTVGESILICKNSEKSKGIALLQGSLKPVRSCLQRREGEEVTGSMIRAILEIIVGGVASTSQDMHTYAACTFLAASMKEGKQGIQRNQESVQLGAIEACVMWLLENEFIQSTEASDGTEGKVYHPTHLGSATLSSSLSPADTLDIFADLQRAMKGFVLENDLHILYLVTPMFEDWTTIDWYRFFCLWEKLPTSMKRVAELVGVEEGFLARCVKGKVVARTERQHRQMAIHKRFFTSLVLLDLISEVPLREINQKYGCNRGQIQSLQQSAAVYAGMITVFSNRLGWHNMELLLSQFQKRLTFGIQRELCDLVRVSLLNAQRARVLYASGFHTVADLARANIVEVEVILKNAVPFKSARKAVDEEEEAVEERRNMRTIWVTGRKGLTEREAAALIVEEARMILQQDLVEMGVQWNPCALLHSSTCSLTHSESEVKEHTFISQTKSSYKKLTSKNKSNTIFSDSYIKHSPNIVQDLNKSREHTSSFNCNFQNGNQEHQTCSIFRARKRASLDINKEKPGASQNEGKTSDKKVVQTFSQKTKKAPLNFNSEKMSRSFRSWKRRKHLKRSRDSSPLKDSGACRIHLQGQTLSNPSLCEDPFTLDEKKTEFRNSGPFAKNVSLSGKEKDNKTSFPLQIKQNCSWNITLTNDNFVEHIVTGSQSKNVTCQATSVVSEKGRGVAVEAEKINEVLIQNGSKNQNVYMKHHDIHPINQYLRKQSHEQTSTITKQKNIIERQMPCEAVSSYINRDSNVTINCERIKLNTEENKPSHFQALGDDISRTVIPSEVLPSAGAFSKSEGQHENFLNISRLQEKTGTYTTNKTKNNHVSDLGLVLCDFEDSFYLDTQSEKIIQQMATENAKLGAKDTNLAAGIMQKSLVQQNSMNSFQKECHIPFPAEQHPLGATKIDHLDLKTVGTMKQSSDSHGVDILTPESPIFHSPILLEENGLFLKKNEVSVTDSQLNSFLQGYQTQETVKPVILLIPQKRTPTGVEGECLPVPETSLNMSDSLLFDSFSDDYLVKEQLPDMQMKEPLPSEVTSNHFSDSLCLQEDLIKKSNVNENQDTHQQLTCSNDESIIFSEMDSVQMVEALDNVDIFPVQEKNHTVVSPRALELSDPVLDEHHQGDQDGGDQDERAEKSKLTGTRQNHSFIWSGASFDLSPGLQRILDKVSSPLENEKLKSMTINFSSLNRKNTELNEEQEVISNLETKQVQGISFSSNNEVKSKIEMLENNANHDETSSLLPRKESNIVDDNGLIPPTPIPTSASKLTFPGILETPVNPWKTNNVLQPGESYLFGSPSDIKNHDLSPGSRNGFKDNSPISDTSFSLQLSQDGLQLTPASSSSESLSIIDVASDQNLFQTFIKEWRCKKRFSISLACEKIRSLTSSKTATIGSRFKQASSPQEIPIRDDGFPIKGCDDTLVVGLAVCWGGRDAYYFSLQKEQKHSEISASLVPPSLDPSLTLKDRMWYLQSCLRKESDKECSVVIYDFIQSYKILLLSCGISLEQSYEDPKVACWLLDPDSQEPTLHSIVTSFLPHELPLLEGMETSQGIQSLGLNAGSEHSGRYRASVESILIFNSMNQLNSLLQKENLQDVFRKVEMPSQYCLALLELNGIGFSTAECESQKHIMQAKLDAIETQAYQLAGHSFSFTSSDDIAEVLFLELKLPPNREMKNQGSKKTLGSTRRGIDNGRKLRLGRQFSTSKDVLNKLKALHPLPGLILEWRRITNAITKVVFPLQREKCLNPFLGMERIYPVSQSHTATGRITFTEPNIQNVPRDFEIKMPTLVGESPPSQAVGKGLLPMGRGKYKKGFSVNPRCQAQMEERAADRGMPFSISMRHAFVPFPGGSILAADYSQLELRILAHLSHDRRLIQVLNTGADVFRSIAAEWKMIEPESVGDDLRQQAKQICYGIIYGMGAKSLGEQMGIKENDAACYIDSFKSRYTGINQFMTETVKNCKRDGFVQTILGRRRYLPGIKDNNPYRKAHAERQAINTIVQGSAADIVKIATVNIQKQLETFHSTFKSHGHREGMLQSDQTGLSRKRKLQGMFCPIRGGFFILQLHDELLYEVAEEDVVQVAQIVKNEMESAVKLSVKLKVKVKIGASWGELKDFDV
Read-out: enzyme activity
Action: inhibitor
Concentration: 77 µM
Relative to: untreated
Measurement: remaining activity
CC(C)(C#N)c1cc(Cn2cncn2)cc(C(C)(C)C#N)c1: 102%
NS(=O)(=O)c1cc(C(=O)O)cc(N2CCCC2)c1Oc1ccccc1: 99%
CN(C)[C@@H]1C(O)=C(C(N)=O)C(=O)[C@@]2(O)C(O)=C3C(=O)c4c(O)cccc4[C@@](C)(O)[C@H]3C[C@@H]12: 101%
Cc1cc(NC(=O)C2=C(O)c3ccccc3S(=O)(=O)N2C)no1: 97%
COC(=O)C1=C(C)NC(C)=C(C(=O)OC)C1c1cccc(NC(=O)NCCCN2CCC(c3cccc(OC)c3)CC2)c1: 104%
O=C(O)c1cc2cc(Cc3cccnc3)ccc2o1: 99.7%
CNCC(O)c1ccc(OC(=O)C(C)(C)C)c(OC(=O)C(C)(C)C)c1 (stereo not drawn): 91.4%
CCCCC1C(=O)N(c2ccccc2)N(c2ccc(O)cc2)C1=O (stereo not drawn): 99.1%
CNC1CCCN(c2c(F)cc3c(=O)c(C(=O)O)cn(C4CC4)c3c2OC)C1 (stereo not drawn): 94%

Study 2
Target: Ribosomal protein S6 kinase beta-1 (RPS6KB1, Homo sapiens, UniProt P23443)
Sequence of UniProt P23443 (whole entry, looked up): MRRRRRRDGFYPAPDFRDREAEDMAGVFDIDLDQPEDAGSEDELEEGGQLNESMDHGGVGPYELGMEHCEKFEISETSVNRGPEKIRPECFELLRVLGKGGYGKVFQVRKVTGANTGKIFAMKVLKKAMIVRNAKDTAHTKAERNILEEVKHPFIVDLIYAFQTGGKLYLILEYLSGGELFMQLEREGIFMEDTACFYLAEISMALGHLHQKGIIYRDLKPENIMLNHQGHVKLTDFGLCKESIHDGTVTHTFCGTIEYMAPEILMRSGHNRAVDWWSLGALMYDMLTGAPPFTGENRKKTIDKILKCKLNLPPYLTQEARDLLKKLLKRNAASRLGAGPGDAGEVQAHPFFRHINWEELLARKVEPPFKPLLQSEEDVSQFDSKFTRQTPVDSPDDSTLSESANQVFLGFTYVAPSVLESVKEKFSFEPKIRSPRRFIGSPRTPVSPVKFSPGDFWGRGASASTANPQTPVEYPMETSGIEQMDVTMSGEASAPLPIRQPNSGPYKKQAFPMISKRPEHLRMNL
Read-out: enzyme activity
Action: inhibitor
Concentration: 0.5 µM
Relative to: control
Measurement: remaining activity
O=C(Nc1cccc(Nc2cc(Nc3cccc(C(F)(F)F)c3)ncn2)c1)C1CC1: 98%
Cc1cccc(-c2[nH]c(C(C)(C)C)nc2-c2ccc3c(c2)OCO3)n1: 95.9%
Cn1c2ccccc2c2c3c(c4c5ccccc5n(CCC#N)c4c21)CNC3=O: 6.71%
COc1cc2nccc(Oc3ccc(NC(=S)NC(=O)c4ccccc4C)cc3)c2cc1OC: 98%
CC(C)[C@H](CO)Nc1nc(Nc2cc(N)cc(Cl)c2)c2ncn(C(C)C)c2n1: 95.5%
OCC(O)CCON=C1C(c2c(O)[nH]c3ccccc23)=Nc2ccccc21 (stereo not drawn): 47.8%
Cc1nc(-c2ccccc2)c(-c2ccncc2)o1: 92.8%
Cn1sc(=O)n(Cc2ccccc2)c1=O: 98%
O=C1NC(=O)C(c2cn(CCCn3ccnc3)c3ccccc23)=C1Nc1ccccc1: 42.7%
COc1ccc(OC)c2c(=S)c3ccccc3[nH]c12: 99.4%
COc1cc2ncnc(Nc3ccc(Oc4ccccc4)cc3)c2cc1OC: 108%
O=c1c2ccccc2[nH]c(=S)n1CCN1CCC(=C(c2ccc(F)cc2)c2ccc(F)cc2)CC1: 97.9%
C#Cc1cccc(Nc2ncnc3cc(OCCOC)c(OCCOC)cc23)c1: 95.1%
CO[C@H]1C[C@@H]2CC[C@@H](C)[C@@](O)(O2)C(=O)C(=O)N2CCCC[C@H]2C(=O)O[C@H]([C@H](C)C[C@@H]2CC[C@@H](O)[C@H](OC)C2)CC(=O)[C@H](C)/C=C(\C)[C@@H](O)[C@@H](OC)C(=O)[C@H](C)C[C@H](C)/C=C/C=C/C=C/1C: 92.6%
Nc1ncnc2n[nH]c(Nc3ccc(F)cc3)c12: 94.3%

Study 3
Structure (SMILES): CNC(=O)Nc1ccc2c(c1)CC[C@@]21OC(=O)N(CC(=O)N(Cc2ccc(F)cc2)[C@@H](C)C(F)(F)F)C1=O
Technique: competition with immobilised ligand
Concentration: 1 µM
Measurement: remaining binding
MAPK4 (Homo sapiens, UniProt P31152); cell-free assay: 84%
EPHB6 (Homo sapiens, UniProt O15197); cell-free assay: 96%
MAK (Homo sapiens, UniProt P20794); binding: 84%
FLT3 (Homo sapiens, UniProt P36888, N841I); cell-free assay: 100%
PTK2 (Homo sapiens, UniProt Q05397); cell-free assay: 94%
BMPR1A (Homo sapiens, UniProt P36894); binding: 91%
CSNK2A1 (Homo sapiens, UniProt P68400); cell-free assay: 63%
PIK3CB (Homo sapiens, UniProt P42338); cell-free assay: 94%
TEC (Homo sapiens, UniProt P42680); binding: 90%
DAPK1 (Homo sapiens, UniProt P53355); cell-free assay: 96%
PKMYT1 (Homo sapiens, UniProt Q99640); cell-free assay: 74%
PIK3CA (Homo sapiens, UniProt P42336, E545A); cell-free assay: 91%
FLT4 (Homo sapiens, UniProt P35916); cell-free assay: 89%
BRAF (Homo sapiens, UniProt P15056); cell-free assay: 93%
LATS1 (Homo sapiens, UniProt O95835); cell-free assay: 60%
TYRO3 (Homo sapiens, UniProt Q06418); cell-free assay: 81%
MAP3K7 (Homo sapiens, UniProt O43318); cell-free assay: 77%
MAP4K3 (Homo sapiens, UniProt Q8IVH8); cell-free assay: 76%
RIPK2 (Homo sapiens, UniProt O43353); cell-free assay: 100%
STK38L (Homo sapiens, UniProt Q9Y2H1); binding: 66%
SRPK3 (Homo sapiens, UniProt Q9UPE1); cell-free assay: 95%
PAK5 (Homo sapiens, UniProt Q9P286); cell-free assay: 100%

Study 4
Cell line: A-375
Concentration: 100 µM
Time: 36 h
Measurement: viability
CCOc1nc2cccc(C(=O)O)c2n1Cc1ccc(-c2ccccc2-c2nnn[nH]2)cc1: 109%
CC(=O)N[C@H]1[C@H]([C@H](O)[C@H](O)CO)OC(C(=O)O)=C[C@@H]1N=C(N)N: 110%
N#CCC(C1CCCC1)n1cc(-c2ncnc3[nH]ccc23)cn1 (stereo not drawn): 46.1%
c1ccc(-c2ccc(C(c3ccccc3)n3ccnc3)cc2)cc1 (stereo not drawn): -0.882%
CC(C)(C)c1ccc(C(O)CCCN2CCC(C(O)(c3ccccc3)c3ccccc3)CC2)cc1 (stereo not drawn): 1.74%
CN1[C@@H]2CCC[C@H]1C[C@@H](NC(=O)c1nn(C)c3ccccc13)C2: 107%
CC(Cc1cccc(C(F)(F)F)c1)NCCOC(=O)c1ccccc1 (stereo not drawn): 0.927%
O=C(O)c1cccnc1Nc1cccc(C(F)(F)F)c1: 95.9%
Cc1nc(C)c(Cl)c(O)c1Cl: 103%
OC(CCN1CCCCC1)(c1ccccc1)C1C[C@@H]2C=C[C@H]1C2 (stereo partly drawn): 78.5%
C#C[C@]1(OC(C)=O)CC[C@H]2[C@@H]3CCC4=C[C@@H](OC(C)=O)CC[C@@H]4[C@H]3CC[C@@]21C: 9.07%

A few entries again (study 3):
CSNK2A1 (Homo sapiens, UniProt P68400); cell-free assay: 63%
PIK3CB (Homo sapiens, UniProt P42338); cell-free assay: 94%
TEC (Homo sapiens, UniProt P42680); binding: 90%
DAPK1 (Homo sapiens, UniProt P53355); cell-free assay: 96%
PKMYT1 (Homo sapiens, UniProt Q99640); cell-free assay: 74%
PIK3CA (Homo sapiens, UniProt P42336, E545A); cell-free assay: 91%
